Published values gathered from unrelated publications.
Each line is one published result; not all experiments were run side by side.
Cell line: Jurkat

| Structure (SMILES) | assay | setting | scale | endpoint | value |
| --- | --- | --- | --- | --- | --- |
| COc1cc(-c2cn(C)c(=O)c3cnccc23)cc(OC)c1CN(C)C | cell growth or viability | 7 days | – | EC50 | > 10 µM |
| CCCCCCCCCCCCCC(=S)NCCCC[C@H](NS(C)(=O)=O)C(=O)N[C@H](C)C(=O)N[C@@H](CCCNC(=N)N)C(N)=O | cell growth or viability, MTT | 72 h | – | EC50 | 7.2 to 14.7 µM |
| Cc1[nH][n+]([Pd-2]([Cl])([Cl])[n+]2[nH]c(C)c(CSCc3ccccc3)c2C)c(C)c1CSCc1ccccc1 | cytotoxicity | – | reference: IC50 HEK293 over IC50 Jurkat | selectivity index | 2.2 |
| CCCCCCCCCCCCNC(=S)NCCCC[C@H](NC(=O)OCc1ccccc1)C(=O)N[C@@H](Cc1c[nH]c2ccccc12)C(=O)NC(C)C | cell growth or viability, MTT | 72 h | – | EC50 | 34.3 to 45.4 µM |
| Cc1ccc(-c2c(C#N)c(N)nc3c2Cc2cc(O)ccc2-3)o1 | cell viability, CellTiter-Glo | – | no inhibition at 100 µM | IC50 | > 100 µM |
| CCCCCCCCCCCCCC(=S)NCCCC[C@H](NC(=O)OCc1ccccc1)C(=O)Nc1ccccc1 | cell growth or viability, MTT | 72 h | – | EC50 | 7.27 to 16 µM |
| Cc1[nH][n+]([Pd-2]([Cl])([Cl])[n+]2[nH]c(C)c(CSC3CCCCC3)c2C)c(C)c1CSC1CCCCC1 | cytotoxicity | – | reference: IC50 HEK293 over IC50 Jurkat | selectivity index | 1.7 |
| NC(=O)c1ccc(-c2ccccc2Cl)c2c3c([nH]c12)CCC(N)C3 (stereo not shown) | cell growth or viability | 96 h | – | IC50 | 0.0209 µM |
| Cc1[nH][n+]([Pd-2]([Br])([Br])[n+]2[nH]c(C)c(CSCc3ccccc3)c2C)c(C)c1CSCc1ccccc1 | cytotoxicity | – | reference: IC50 HEK293 over IC50 Jurkat | selectivity index | 1.7 |
| N#Cc1c(N)nc2c(c1-c1ccc[nH]1)Cc1cc(O)ccc1-2 | cell growth or viability, ATP luminescence | – | – | IC50 | 18.7 µM |

Some of these lines once more:
| Structure (SMILES) | assay | setting | scale | endpoint | value |
| --- | --- | --- | --- | --- | --- |
| Cc1ccc(-c2c(C#N)c(N)nc3c2Cc2cc(O)ccc2-3)o1 | cell viability, CellTiter-Glo | – | no inhibition at 100 µM | IC50 | > 100 µM |
